Results from different studies.
Lines come from different studies, so protocols differ. Numbers after ± are the reported error.
Cell line: A549

Structure (SMILES)	test	conditions	how to read	endpoint	value
Cc1cc(-c2ccccc2)c2ccc3c(-c4ccccc4)cc(C)nc3c2n1.[Cl-].[Cl-].[Ru+2].c1ccc(-c2ccccn2)nc1.c1ccc(-c2ccccn2)nc1	LC-MS/MS	3 µM, end of incubation	–	cellular uptake	0.6 nmol/10⁶ cells
CC1(CO)C(O)CCC2(C)C(C=CC3=CCOC3=O)C(CO)=CCC12 (centres unmarked)	cell growth or viability, MTT	20 µM, 48 h	–	inhibition	40.8%
CCN1CCC2(CC1)C/C(=N\NC(=O)Nc1ccccc1)c1ccccc1O2	PI staining, flow cytometry	concentration not given, %G2/M	–	cell cycle distribution	6.55%
Cc1ccc(C(C)C)cc1.O=C([N-]c1nc2ccccc2[nH]1)c1cnccn1.[Cl-].[Ru+2]	cytotoxicity, MTT	–	baseline: KMST-6 over A549	selectivity index	> 2
CCCC1OC2CC3C4CCC5=CC(=O)C=CC5(C)C4C(O)CC3(C)C2(C(=O)COC(=O)CN(C)C)O1 (centres unmarked)	IL-6 release, inhibitor, ELISA	1 nM, 24 h, LPS-stimulated	–	inhibition	> 50%
C=C(CC)C(=O)c1ccc(OCC(=O)NCCNC(=O)COc2ccc(C(=O)C(=C)CC)c(Cl)c2Cl)c(Cl)c1Cl	cell growth, CCK-8	72 h	–	IC10	~0.7 µM
C[C@@H]1O[C@@H](OC[C@H]2O[C@@H](OCCc3ccc(O)c(O)c3)[C@H](O)[C@@H](O)[C@@H]2OC(=O)/C=C/c2ccc(O)c(O)c2)[C@H](O)[C@H](O)[C@H]1O	western blot	concentration not given	–	H3K4me2 accumulation	206%
CCOC(=O)C1=C(C)NC(=O)N[C@@H]1/C=C/c1ccc(OC)cc1	wound healing	7 and 15 µM, 24 h	baseline: vehicle DMSO	cell migration	decreased
C[C@@H]1O[C@H]2O[C@@H]3C4(O)C(=O)c5cccc(O)c5C(=O)C4(O)O[C@]3(C)[C@]21O (some centres unmarked)	cell growth or viability, MTT	48 h	–	EC50	46.7 µg/mL
FC(F)(F)c1ccnc(-c2cc(C(F)(F)F)ccn2)c1.FC(F)(F)c1ccnc(-c2cc(C(F)(F)F)ccn2)c1.[Cl-].[Cl-].[Ru+2].c1csc(-c2nc3c4cccnc4c4ncccc4c3[nH]2)c1	cell viability	100 J/cm2 light, normoxia, with: visible light 400-700 nm	–	EC50	29 µM
[Cl-].[Cl-].[Ru+2].c1ccc(-c2ccccn2)nc1.c1ccc(-c2ccccn2)nc1.c1ccc(-c2ccnc3c2ccc2c(-c4ccccc4)ccnc23)cc1	Seahorse MitoStress	concentration not given, 1 h, dark	–	oxygen consumption rate	no effect
FC(F)(F)c1ccnc(-c2cc(C(F)(F)F)ccn2)c1.FC(F)(F)c1ccnc(-c2cc(C(F)(F)F)ccn2)c1.[Cl-].[Cl-].[Ru+2].c1cnc2c(c1)c1nc[nH]c1c1cccnc12	cell growth or viability, resazurin	dark	–	EC50	> 300 µM
Cn1c2ccc(Cl)c(=O)c-2nc2ccccc21	cytotoxicity, WST-8	–	baseline: IC50 MRC5 over IC50 A549	selectivity index	5.8
CC1=CC(C)=[N+]2C1=C(CO)c1c(C)cc(C)n1[B-]2(C)C	resazurin	0.1667 h, with: 510 nm light, 10 min	baseline: dark over light IC50	phototoxicity index	100 ± 70
Cc1cccc(O)c1C(=O)OCC1(O)C(Nc2cccc3ccccc23)C(N)C(NC(=O)N(C)C)(C(C)O)C1(C)O (centres unmarked)	cell growth or viability	–	–	EC50	2.21 µM
CCCCN(CCCC)CC(O)COc1c2ccoc2c(OC)c2oc(CC)cc(=O)c12 (centres unmarked)	annexin V/7-AAD flow cytometry	IC50, 72 h	–	late apoptotic or necrotic cells	39.7%
FC(F)(F)c1ccnc(-c2cc(C(F)(F)F)ccn2)c1.FC(F)(F)c1ccnc(-c2cc(C(F)(F)F)ccn2)c1.[Cl-].[Cl-].[Ru+2].c1csc(-c2ccc(-c3ccc(-c4ccc(-c5nc6c7cccnc7c7ncccc7c6[nH]5)s4)s3)s2)c1	cell viability	100 J/cm2 light, normoxia, with: visible light 400-700 nm	–	EC50	0.077 µM
Cc1ccc2ccc3ccc(C)nc3c2n1.Cc1ccc2ccc3ccc(C)nc3c2n1.Clc1ccc(-c2cc(-c3ccccn3)nn2-c2ccccc2)cc1.[Cl-].[Cl-].[Ru+2]	Seahorse Mito Stress Test	concentration not given, with: 450 nm light 29.1 J/cm2	baseline: vehicle	maximal respiration reduction	< 30%
CC(C)OC1(CO)CCC2C(C)(CO)C(O)CCC2(C)C1C=CC1=CCOC1=O (centres unmarked)	cell growth or viability, MTT	20 µM, 48 h	–	inhibition	13.2%
Cc1cc(Nc2cc(CN3CCN(C)CC3)cc(NC(=O)c3cccc(Nc4ccnc5ccccc45)c3)c2)nc(N)n1	–	–	–	time to peak ATM autophosphorylation	2 h
Nc1nccc(-n2cc(C(=O)N[C@H]3CCCNC3)c3ccc(C#CC4(O)CCCCC4)cc32)n1	wound-healing	5 µM	–	cell migration	64%
S=c1n(-c2ccccc2)c2c3ccccc3nc3[n+]2[n]1[Ir-3]12([S]3)([c]3ccccc3-c3cccc[n+]31)[c]1ccccc1-c1cccc[n+]12	–	–	baseline: IC50 dark over IC50 light	phototoxicity index	> 1850
COc1ccc(/C=C/C2=[N+]3C(=C(CO)c4c(C)cc(/C=C/c5ccc(OC)cc5)n4[B-]3(F)F)C(C)=C2C=O)cc1	resazurin	with: 645 nm light	baseline: dark over light IC50	phototoxicity index	12 ± 1
CC(=O)OC[C@H]1O[C@@H](Sc2sc(C(=O)c3ccc(C)cc3)c(N)c2-c2nc3ccccc3s2)[C@H](OC(C)=O)[C@@H](OC(C)=O)[C@H]1OC(C)=O	SRB	10 µM, 48 h	–	growth	89.2%

Structure (SMILES)	test	conditions	how to read	endpoint	value
Nc1cccc[n+]1Cc1cccc(C[n+]2ccccc2N)c1	flow cytometry	15 µM, 24 h	–	cell population in G0/G1 phase	36.8%
C#Cc1cccc(Nc2ncnc3cc(OC)c(OCCCN4CCOCC4)cc23)c1	EGFR phosphorylation, Western blot, item: p-EGFR and p-AKT	concentration not given, 2 h then washout	–	recovery time	12 h
Cc1cccc(-c2cccc(C)n2)n1.Cc1cccc(-c2cccc(C)n2)n1.[Cl-].[Cl-].[Ru+2].c1ccc(-c2ccnc3c2ccc2c(-c4ccccc4)ccnc23)cc1	cytotoxicity, resazurin	72 h, light irradiation 5 min, λ>400 nm	–	EC50	3.9 ± 1.1 µM
[Cl-].[Cl-].[Ru+2].c1ccc(-c2ccccn2)nc1.c1ccc(-c2ccccn2)nc1.c1cnc2c(c1)ccc1cccnc12	–	3 µM	–	maximum intracellular concentration	~40 µM
COc1ccc([C@@H]2CC(=O)c3c(O)cc(O[C@@H]4O[C@H](CO[C@@H]5O[C@@H](C)[C@H](O)[C@@H](O)[C@H]5O)[C@@H](O)[C@H](O)[C@H]4O)cc3O2)cc1O	cell migration, scratch	150 µg/mL, 72 h	–	gap closure	10.1 ± 1.64%
COc1cc(CNC(=O)C[C@H](C)CCC=C(C)C)ccc1OCc1cn(-c2ccc(Cl)c(Cl)c2)nn1	flow cytometry propidium iodide	10 µM, 48 h	–	cells in S phase	50.6%
[Cl-].[Cl-].[Ru+2].c1ccc2nc(-c3ccc4ccccc4n3)ccc2c1.c1ccc2nc(-c3ccc4ccccc4n3)ccc2c1.c1cnc2c(c1)ccc1cccnc12	oxygen consumption rate, Seahorse extracellular flux	1 h, dark	–	lowest concentration inhibiting OCR	> 10 µM
O=C1Nc2ccc(Cl)cc2/C1=N/Nc1nnc(Cc2ccccc2)c2ccccc12	–	concentration not given, with: serum stimulation	–	tyrosine phosphorylation	no effect
COc1ccc(C([O-])=CC(=O)c2ccc(C(C)(C)C)cc2)cc1.[Cl-].[Ru+2].c1ccc(-c2cccc(-c3ccccn3)n2)nc1	oxygen consumption rate, Seahorse extracellular flux	1 h, dark	–	lowest concentration inhibiting OCR	10 µM
CC(C)=CCn1c2cccc(=O)c-2nc2ccccc21	cytotoxicity, WST-8	–	baseline: IC50 MRC5 over IC50 A549	selectivity index	0.99
N.N.[Cl][Pt+].c1ccc2c(c1)cnc1ccccc12	–	0.5 µM, 24 h	–	cells with NPM1 translocation	49%
O=C(CSC(=S)N1CCCC1)Nc1ccc2c(c1)C(=O)c1ccccc1C2=O	phospho-flow cytometry	25 µM, high serum	baseline: vehicle	phosphotyrosine level	~2 fold decrease
CC(=O)OC[C@H]1O[C@@H](Sc2sc(C(=O)c3ccc(Br)cc3)c(N)c2-c2nc3ccccc3s2)[C@H](OC(C)=O)[C@@H](OC(C)=O)[C@H]1OC(C)=O	SRB	10 µM, 48 h	–	growth	92.2%
CCNc1cc2c(cc1C)C1(c3cc(C)c(NCC)cc3O2)c2ccccc2C(=O)N1N=Cc1c[c-]c(-c2ccccn2)cc1.Cc1c(C)c(-c2ccc(-c3ccccc3)cc2)[c-](C)c1C.[Cl-].[Ir+3]	DCFH-DA flow cytometry	0.5 × IC50, 24 h	baseline: untreated	ROS level	2.5 fold
CC(=O)c1cccc(NC2C(N)C(NC(=O)N(C)C)(C(C)O)C(O)C2(O)COC(=O)c2c(C)cccc2O)c1 (centres unmarked)	cell growth or viability	–	–	EC50	0.032 µM
C[C@@H]1NC(=O)[C@H](CCC(=O)O)NC(=O)CNC(=O)[C@H](CC(=O)O)NC(=O)CNC(=O)[C@H](CCCCNC(=O)CCCCCNC(=O)[C@H](CS)NC(=O)CCCCCNC(=O)CN2CCN(CC(=O)O)CCN(CC(=O)O)CCN(CC(=O)O)CC2)NC(=O)[C@@H](Cc2ccc(O)cc2)NC1=O [gallium-68 labelled]	–	5 to 90 min, 37 °C	baseline: added radioactivity	cellular uptake	< 1%
COc1ccc2c(c1)c(CC(=O)Nc1nnc(CCCCc3ccc(NC(=O)Cc4cccc(OC(F)(F)F)c4)nn3)[se]1)cn2C	EZMTT	concentration not given, 120 h	–	growth inhibition	60 to 80%
COCc1nc(C(F)(F)F)[nH]c1-c1cc(C(=O)N2CC(c3ccc(C#N)cc3)C2)c(C)cc1C	tubulin palmitoylation, acyl-biotin exchange Western blot, item: palmitoyl-α-tubulin	50 nM, 72 h	–	inhibition	67%
CC(=O)N[C@@H](CC[S+](C)[Ru-4]123([S+](C)CC[C@H](NC(C)=O)C(=O)O)[n+]4ccc5ccccc5c4Nc4cccc([n+]41)-c1cccc([n+]12)Nc1c2ccccc2cc[n+]13)C(=O)[O-].F[P-](F)(F)(F)(F)F (some centres unmarked)	cytotoxicity	dark, 6 and 24 h	–	EC50	11 to 20 µM
CN(C)c1cccc2c(S(=O)(=O)NCCCCCC(=O)NO)cccc12	cell cycle, propidium iodide flow cytometry	10 µM	–	cells in S phase	2.03%
Cc1cccc(-c2cccc(C)n2)n1.[Cl-].[Cl-].[Ru+2].c1ccc(-c2ccccn2)nc1.c1ccc(-c2ccccn2)nc1	Seahorse proton efflux	concentration not given, dark and irradiated	–	glycolytic rate	no effect
CC1=CC[C@]2(C(=O)O[C@H]3OC[C@@H](O)[C@@H](O)[C@@H]3OS(=O)(=O)O)CC[C@]3(C)C(CCC4[C@@]5(C)CC[C@H](O)C(C)(C)C5CC[C@]43C)C2[C@H]1C (some centres unmarked)	annexin V/PI flow cytometry	2.34 µM, 48 h	–	apoptotic cells	21.5%
COc1ccc([C@@H]2CC(=O)c3c(O)cc(O[C@@H]4O[C@H](CO[C@@H]5O[C@@H](C)[C@H](O)[C@@H](O)[C@H]5O)[C@@H](O[C@H]5O[C@H](CO)[C@@H](O)[C@H](O)[C@H]5O)[C@H](O)[C@H]4O)cc3O2)cc1O	cell migration, scratch	100 µg/mL, 0 h	–	gap closure	0%

Repeated from above:
Structure (SMILES)	test	conditions	how to read	endpoint	value
COc1ccc(C([O-])=CC(=O)c2ccc(C(C)(C)C)cc2)cc1.[Cl-].[Ru+2].c1ccc(-c2cccc(-c3ccccn3)n2)nc1	oxygen consumption rate, Seahorse extracellular flux	1 h, dark	–	lowest concentration inhibiting OCR	10 µM
CC(C)=CCn1c2cccc(=O)c-2nc2ccccc21	cytotoxicity, WST-8	–	baseline: IC50 MRC5 over IC50 A549	selectivity index	0.99
N.N.[Cl][Pt+].c1ccc2c(c1)cnc1ccccc12	–	0.5 µM, 24 h	–	cells with NPM1 translocation	49%
O=C(CSC(=S)N1CCCC1)Nc1ccc2c(c1)C(=O)c1ccccc1C2=O	phospho-flow cytometry	25 µM, high serum	baseline: vehicle	phosphotyrosine level	~2 fold decrease
CC(=O)OC[C@H]1O[C@@H](Sc2sc(C(=O)c3ccc(Br)cc3)c(N)c2-c2nc3ccccc3s2)[C@H](OC(C)=O)[C@@H](OC(C)=O)[C@H]1OC(C)=O	SRB	10 µM, 48 h	–	growth	92.2%
CCNc1cc2c(cc1C)C1(c3cc(C)c(NCC)cc3O2)c2ccccc2C(=O)N1N=Cc1c[c-]c(-c2ccccn2)cc1.Cc1c(C)c(-c2ccc(-c3ccccc3)cc2)[c-](C)c1C.[Cl-].[Ir+3]	DCFH-DA flow cytometry	0.5 × IC50, 24 h	baseline: untreated	ROS level	2.5 fold
CC(=O)c1cccc(NC2C(N)C(NC(=O)N(C)C)(C(C)O)C(O)C2(O)COC(=O)c2c(C)cccc2O)c1 (centres unmarked)	cell growth or viability	–	–	EC50	0.032 µM
